Results pooled from the literature.
Parts stem from different laboratories: compare values within a part only. Substitutions count along the parent as printed.

Series 1
Target: CCND3, cyclin fold, Cln2 fusion (human)
Technique: yeast growth competition, sequencing
Matrix: yeast
Setting: weak parent motif
Reference: not given
Reading: higher = stronger binding
Endpoint: normalised enrichment score
Parent: viral docking peptide; KKVKRRLFETREL; partner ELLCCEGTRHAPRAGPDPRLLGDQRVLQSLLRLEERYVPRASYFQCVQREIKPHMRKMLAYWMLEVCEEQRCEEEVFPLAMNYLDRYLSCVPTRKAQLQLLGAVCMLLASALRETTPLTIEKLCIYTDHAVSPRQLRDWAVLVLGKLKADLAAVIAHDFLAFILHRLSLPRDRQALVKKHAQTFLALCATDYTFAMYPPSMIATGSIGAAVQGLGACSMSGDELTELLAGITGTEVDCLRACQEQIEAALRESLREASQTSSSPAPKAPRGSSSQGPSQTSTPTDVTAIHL
K4A: 0.0511
F8L: 0.166
K2A: 0.117
F8A: 0.0938
L7A: 0.279
L13A: 0.0772
R11A: 0.126

Series 2
Target: Sal-like protein 4, full length isoform A (SALL4, Homo sapiens, UniProt Q9UJQ4, residues 1-1053)
Sequence of UniProt Q9UJQ4 (whole entry, looked up): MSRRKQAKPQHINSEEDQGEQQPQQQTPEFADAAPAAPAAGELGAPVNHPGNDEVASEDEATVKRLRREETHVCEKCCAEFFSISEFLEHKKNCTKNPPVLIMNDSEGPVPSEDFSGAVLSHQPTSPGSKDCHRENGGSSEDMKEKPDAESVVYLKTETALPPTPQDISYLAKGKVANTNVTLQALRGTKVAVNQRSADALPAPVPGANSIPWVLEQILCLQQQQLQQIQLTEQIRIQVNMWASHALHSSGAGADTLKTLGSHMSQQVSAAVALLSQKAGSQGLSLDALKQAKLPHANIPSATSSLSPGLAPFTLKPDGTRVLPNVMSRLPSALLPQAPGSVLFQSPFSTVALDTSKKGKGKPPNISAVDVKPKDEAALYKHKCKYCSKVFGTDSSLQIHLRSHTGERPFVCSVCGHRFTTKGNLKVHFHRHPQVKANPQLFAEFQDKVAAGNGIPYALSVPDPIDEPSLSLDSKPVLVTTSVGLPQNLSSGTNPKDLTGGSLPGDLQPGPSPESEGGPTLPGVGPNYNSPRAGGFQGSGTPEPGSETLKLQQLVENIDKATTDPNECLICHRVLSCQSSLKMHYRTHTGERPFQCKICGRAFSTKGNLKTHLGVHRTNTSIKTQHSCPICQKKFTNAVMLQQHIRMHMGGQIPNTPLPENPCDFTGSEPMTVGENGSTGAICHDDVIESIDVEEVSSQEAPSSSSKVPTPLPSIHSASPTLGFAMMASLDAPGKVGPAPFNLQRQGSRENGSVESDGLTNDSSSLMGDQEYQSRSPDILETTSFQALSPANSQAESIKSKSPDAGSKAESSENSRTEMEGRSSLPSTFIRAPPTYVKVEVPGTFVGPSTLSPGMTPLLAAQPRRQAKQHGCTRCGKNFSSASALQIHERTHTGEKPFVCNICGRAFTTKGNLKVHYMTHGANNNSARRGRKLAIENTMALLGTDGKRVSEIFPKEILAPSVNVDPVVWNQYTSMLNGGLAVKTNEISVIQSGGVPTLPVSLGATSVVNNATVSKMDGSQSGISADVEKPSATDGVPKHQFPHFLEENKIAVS
Technique: universal PBM
Form: double-stranded DNA, one strand shown
Matrix: in vitro
Tested at: 600 nM
Setting: 8-mer, flanks averaged, mean of replicates
Reading: higher = stronger binding
Endpoint: E-score
CGAAGTGA: -0.0908
CTTTTAAC: 0.169
ACCTCGCC: -0.344
AAAGTCCC: -0.00722
ACCGTCGC: -0.252
CAACTCAC: -0.058
GTCTGGAA: 0.0351
ACGCGCCC: -0.273

Series 3
Partner: ARF12 500-593 (Arabidopsis thaliana, UniProt Q9XID4)
Technique: two-hybrid
Reference: out of 4 tests
Reading: higher = firmer interaction
Endpoint: positive tests
B1: ARF11 500-622 (Arabidopsis thaliana, UniProt Q9ZPY6); chain SPKEQKQQTSTRSRIKVQMQGTAVGRAVDLTLLRSYDELIKELEKMFEIEGELSPKDKWAIVFTDDEGDRMLVGDDPWNEFCKMAKKLFIYPSDEVKKMRSKSLLGDKGTIVNLESDQRTVHV
B2: IAA33 (Arabidopsis thaliana, UniProt Q9FKM7); chain MNSFEPQSQDSLQRRFHQDNSTTQQPRDTTTPFIPKPASKNHNNSNSSSGAAGRSFQGFGLNVEDDLVSSVVPPVTVVLEGRSICQRISLDKHGSYQSLASALRQMFVDGADSTDDLDLSNAIPGHLIAYEDMENDLLLAGDLTWKDFVRVAKRIRILPVKGNTRQVKRNE
B3: IAA19 (Arabidopsis thaliana, UniProt O24409); chain MEKEGLGLEITELRLGLPGRDVAEKMMKKRAFTEMNMTSSGSNSDQCESGVVSSGGDAEKVNDSPAAKSQVVGWPPVCSYRKKNSCKEASTTKVGLGYVKVSMDGVPYLRKMDLGSSQGYDDLAFALDKLFGFRGIGVALKDGDNCEYVTIYEDKDGDWMLAGDVPWGMFLESCKRLRIMKRSDATGFGLQPRGVDE
B4: IAA27 (Arabidopsis thaliana, UniProt Q9ZSY8); chain MSVSVAAEHDYIGLSEFPTMEATTMSDKTKTRDNNNGLNFKATELRLGLPGSESPERVDSRFLALNKSSCPVSGAKRVFSDAINDSNKWVFSPGSTTATGDVGSGSGPRTSVVKDGKSTTFTKPAVPVKEKKSSATAPASKAQVVGWPPIRSFRKNSMASSQSQKPGNNSETEEAEAKSGPEQPCLYVKVSMEGAPYLRKIDLKTYKSYLELSSALEKMFSCFTIGQFGSHGGCGRDGLNESRLTDLLRGSEYVVTYEDKDSDWMLVGDVPWEMFICSCKKLRIMKSSEAIGLAPRVMEKCRSRN
B5: ARF8 699-811 (Arabidopsis thaliana, UniProt Q9FGV1); chain NSSNQTKNFVKVYKSGSVGRSLDISRFSSYHELREELGKMFAIEGLLEDPLRSGWQLVFVDKENDILLLGDDPWESFVNNVWYIKILSPEDVHQMGDHGEGSGGLFPQNPTHL
B6: IAA17 (Arabidopsis thaliana, UniProt P93830); chain MMGSVELNLRETELCLGLPGGDTVAPVTGNKRGFSETVDLKLNLNNEPANKEGSTTHDVVTFDSKEKSACPKDPAKPPAKAQVVGWPPVRSYRKNVMVSCQKSSGGPEAAAFVKVSMDGAPYLRKIDLRMYKSYDELSNALSNMFSSFTMGKHGGEEGMIDFMNERKLMDLVNSWDYVPSYEDKDGDWMLVGDVPWPMFVDTCKRLRLMKGSDAIGLAPRAMEKCKSRA
B7: ARF7 1030-1164 (Arabidopsis thaliana, UniProt P93022); chain PAQTQRMRTYTKVQKRGSVGRSIDVNRYRGYDELRHDLARMFGIEGQLEDPQTSDWKLVYVDHENDILLVGDDPWEEFVNCVQSIKILSSAEVQQMSLDGNFAGVPVTNQACSGGDSGNAWRGHYDDNSATSFNR
B8: IAA18 (Arabidopsis thaliana, UniProt O24408); chain MEGYSRNGEISPKLLDLMIPQERRNWFHDEKNSVFKTEEKKLELKLGPPGEEDDDESMIRHMKKEPKDKSILSLAGKYFSPSSTKTTSHKRTAPGPVVGWPPVRSFRKNLASGSSSKLGNDSTTSNGVTLKNQKCDAAAKTTEPKRQGGMFVKINMYGVPIGRKVDLSAHNSYEQLSFTVDKLFRGLLAAQRDFPSSIEDEKPITGLLDGNGEYTLTYEDNEGDKMLVGDVPWQMFVSSVKRLRVIKTSEISSALTYGNGKQEKMRR
Target sequence (chain): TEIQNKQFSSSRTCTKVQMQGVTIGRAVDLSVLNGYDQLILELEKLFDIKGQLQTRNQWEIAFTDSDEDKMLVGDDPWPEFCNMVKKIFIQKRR
B1 (ARF11 500-622): 0
B2 (IAA33): 1
B3 (IAA19): 0
B4 (IAA27): 0
B5 (ARF8 699-811): 0
B6 (IAA17): 1
B7 (ARF7 1030-1164): 0
B8 (IAA18): 0

Mixed results
Technique: cross-linking MS
ARVCF (Homo sapiens, UniProt O00192)
cross-linked residues (DRC11 (Homo sapiens, UniProt Q86XH1); cell fractions; together with: DMTMM): K561 to E650

CPSF2 (Homo sapiens, UniProt Q9P2I0)
interaction screen (CPSF3 (Homo sapiens, UniProt Q9UKF6); hits only): cross-linked

YWHAE (Homo sapiens, UniProt P62258)
cross-linked residues (YWHAZ (Homo sapiens, UniProt P63104); cell fractions; together with: DHSO): E25 to D20
